Experimental data pooled from the literature.
Protocols differ between the studies behind these lines.
Organism: Klebsiella pneumoniae

Compound	test	system	conditions	MIC
C[C@@H](O)[C@H]1C(=O)N2C(C(=O)O)=C(S[C@@H]3CN[C@H](C(=O)N(C)C)C3)[C@H](C)[C@H]12	broth microdilution	parental, KPC-33	–	4 µg/mL
CC[C@H](C)[C@H](NC(=O)[C@H](CC(C)C)NC(=O)[C@@H](NC(=O)[C@H](Cc1ccc(O)cc1)NC(=O)[C@H](CO)NC(=O)CNC(=O)[C@H](CCCNC(=N)N)NC(=O)[C@H](CCCNC(=N)N)NC(=O)[C@H](CCCNC(=N)N)NC(=O)[C@@H]1CCCN1C(=O)[C@H](CCCCN)NC(=O)[C@H](Cc1c[nH]c2ccccc12)NC(=O)[C@@H](NC(=O)[C@H](Cc1c[nH]c2ccccc12)NC(=O)[C@H](CCCCN)NC(=O)[C@H](CCCNC(=N)N)NC(=O)[C@H](CCCNC(=N)N)NC(=O)[C@@H]1CCCN1C(=O)[C@H](CO)NC(=O)[C@H](CCCNC(=N)N)NC(=O)[C@H](CO)NC(=O)[C@H](CCCNC(=N)N)NC(=O)[C@@H](N)CCCNC(=N)N)[C@@H](C)O)[C@@H](C)O)C(=O)N[C@@H](CO)C(=O)N[C@@H](CCC(N)=O)C(=O)NCC(=O)NCC(=O)N[C@@H](CC(N)=O)C(=O)O	–	ATCC 43823	highest concentration 50 µM	21.8 µM
CCCCCCCCCC(=O)N[C@@H](CCCCN)C(=O)N[C@@H](CCCCN)C(=O)N[C@@H](C)C(=O)N[C@@H](CC(C)C)C(=O)N[C@@H](CCCCN)C(=O)N[C@@H](CC(C)C)C(=O)N[C@@H](C)C(=O)N[C@@H](CCCCN)C(=O)N[C@@H](CCCCN)C(=O)N1CCC[C@H]1C(=O)N[C@@H](CC(C)C)C(=O)N[C@@H](CCCCN)C(=O)N[C@@H](CC(C)C)C(=O)N[C@@H](CC(C)C)C(=O)N[C@@H](CCCCN)C(N)=O	broth microdilution	ATCC 700603	18 h, 37 °C, compound alone	> 80 µM
C[C@@H](N)[C@H](O)CCCCCCCC(=O)CCCCCCCCCCCCCC[C@@H](O[C@@H]1O[C@H](CO)[C@H](O)[C@H](O)[C@H]1O)[C@@H](C)N	resazurin	–	–	11.4 µM
CC[C@H](C)[C@H](N)C(=O)N[C@@H](CC(C)C)C(=O)NCC(=O)N[C@H](CCCNC(=N)N)C(=O)N[C@H](C(=O)N[C@@H](Cc1c[nH]c2ccccc12)C(=O)N[C@@H](CCCCN)C(=O)NCC(=O)N[C@H](C(=O)N[C@@H](CCCCN)C(=O)N[C@@H](CC(=O)O)C(=O)N[C@H](C(=O)N[C@@H](CC(C)C)C(N)=O)[C@@H](C)CC)[C@@H](C)CC)[C@@H](C)CC	broth microdilution	ATCC 27736, Mueller-Hinton broth	16 h, 37 °C	50 µM
NCC[C@H](O)C(=O)N[C@@H]1C[C@H](N)[C@@H](O[C@H]2O[C@H](CN)[C@@H](O)[C@H](O)[C@H]2O)[C@H](O)[C@H]1O[C@H]1O[C@H](CO)[C@@H](O)[C@H](N)[C@H]1O	broth microdilution	KPC-100 producing	–	> 128 µg/mL
CCCc1nc(Cl)c2c(c1O)C(=O)C1=C(O)[C@]3(O)C(=O)C(C(N)=O)=C(O)[C@@H](N(C)C)[C@@H]3C[C@@H]1C2.Cl	–	tet(A)-carrying	–	> 32 µg/mL
CC[C@@H](C)[C@@H](N)C(=O)N[C@@H](C(=O)N[C@H](Cc1ccc(O)cc1)C(=O)N[C@@H](C(=O)N[C@H](CCN)C(=O)N[C@H](CC(C)C)C(=O)N[C@H](CO)C(=O)N[C@H](CCN)C(=O)N[C@@H](C(=O)N[C@H](CCN)C(=O)N[C@H](Cc1c[nH]cn1)C(=O)N[C@H](CCN)C(=O)N[C@H](C)C(=O)N[C@H](CCN)C(=O)N[C@H](CCN)C(N)=O)[C@H](C)CC)[C@H](C)CC)[C@H](C)CC	broth microdilution	CDC 0005, Mueller-Hinton broth	–	4 µg/mL
CC1=C[C@@H]2CN(C(=O)N2OS(=O)(=O)O)[C@@H]1C(N)=O	–	ATCC BAA-2146, ESBL and NDM-positive	compound alone	> 128 µg/mL
CC[C@H](C)[C@H](NC(=O)[C@H](C)NC(=O)[C@H](CCCCN)NC(=O)[C@H](CC(C)C)NC(=O)[C@H](C)NC(=O)[C@@H](NC(=O)[C@H](Cc1c[nH]cn1)NC(=O)[C@H](CC(C)C)NC(=O)[C@@H](NC(=O)[C@@H](NC(=O)[C@H](CCCCN)NC(=O)[C@H](C)NC(=O)[C@H](C)NC(=O)[C@H](CO)NC(=O)[C@H](CCCCN)NC(=O)[C@H](Cc1ccccc1)NC(=O)[C@@H](NC(=O)[C@H](CCCCN)NC(=O)[C@H](CC(C)C)NC(=O)[C@H](Cc1ccccc1)NC(=O)[C@H](CO)NC(=O)[C@H](CCCCN)NC(=O)[C@H](Cc1c[nH]c2ccccc12)NC(=O)[C@H](CCCCN)NC(C)=O)[C@@H](C)O)[C@@H](C)O)C(C)C)[C@@H](C)O)C(=O)N[C@@H](CO)C(=O)N[C@@H](CO)C(N)=O	–	ESBL ATCC 700603	range	8 µg/mL
CC(=O)N[C@@H](CCCCN)C(=O)N[C@@H](C)C(=O)N[C@@H](CC(C)C)C(=O)N[C@@H](CC(C)C)C(=O)N[C@@H](CCCCN)C(=O)N[C@@H](CC(C)C)C(=O)N[C@@H](CC(C)C)C(=O)N[C@@H](CCCCN)C(=O)N[C@@H](CCCCN)C(=O)N1CCC[C@H]1C(=O)N[C@@H](CC(C)C)C(=O)N[C@@H](CCCCN)C(=O)N[C@@H](CC(C)C)C(=O)N[C@@H](CC(C)C)C(=O)N[C@@H](CCCCN)C(N)=O	broth microdilution	ATCC 700603	18 h, 37 °C, compound alone	> 80 µM
C[C@@H](O)[C@H]1C(=O)N2C(C(=O)O)=C(S[C@@H]3CN[C@H](C(=O)N(C)C)C3)[C@H](C)[C@H]12	broth microdilution	ATCC 43816 acrAB overexpressor	–	< 0.5 µg/mL
C[C@@H](O)[C@H]1C(=O)N2C(C(=O)O)=C(S[C@@H]3CN[C@H](C(=O)N(C)C)C3)[C@H](C)[C@H]12	–	ATCC 700603 ESBL SHV-18	–	0.03 µg/mL
CC[C@H]1OC(=O)[C@H](C)[C@@H](O[C@H]2C[C@@](C)(OC)[C@@H](O)[C@H](C)O2)[C@H](C)[C@@H](O[C@@H]2O[C@H](C)C[C@H](N(C)C)[C@H]2O)[C@](C)(O)C[C@@H](C)C(=O)[C@H](C)[C@@H](O)[C@]1(C)O	broth microdilution	ATCC 43816 acrAB overexpressor	together with: colistin 0.5 mg/L	64 µg/mL
CCCCCC(=O)N[C@@H](CCCCN)C(=O)N[C@@H](CCCCN)C(=O)N[C@@H](C)C(=O)N[C@@H](CC(C)C)C(=O)N[C@@H](CCCCN)C(=O)N[C@@H](CC(C)C)C(=O)N[C@@H](C)C(=O)N[C@@H](CCCCN)C(=O)N[C@@H](CCCCN)C(=O)N1CCC[C@H]1C(=O)N[C@@H](CC(C)C)C(=O)N[C@@H](CCCCN)C(=O)N[C@@H](CC(C)C)C(=O)N[C@@H](CC(C)C)C(=O)N[C@@H](CCCCN)C(N)=O	broth microdilution	ATCC 700603	18 h, 37 °C, compound alone	> 80 µM
CC[C@H](C)[C@H](NC(=O)[C@H](Cc1ccccc1)NC(=O)[C@@H](NC(=O)[C@H](Cc1ccccc1)NC(=O)[C@@H]1CCCN1C(=O)[C@@H](NC(=O)[C@H](C)N)[C@@H](C)CC)[C@@H](C)CC)C(=O)N[C@@H](Cc1c[nH]c2ccccc12)C(=O)N[C@@H](CCCNC(=N)N)C(=O)N[C@@H](CC(C)C)C(=O)N[C@@H](CC(C)C)C(=O)N[C@@H](CCCNC(=N)N)C(=O)N[C@@H](CCCCN)C(=O)NCC(N)=O	broth microdilution	ATCC 700603	18 h, 37 °C	15 µM
COc1ncc(O)c2c1C[C@H]1C[C@H]3[C@H](N(C)C)C(O)=C(C(N)=O)C(=O)[C@@]3(O)C(O)=C1C2=O.Cl.Cl	–	tet(A)-carrying	–	> 32 µg/mL
CN(C)c1cc(NC(=O)CNC(C)(C)C)c(O)c2c1C[C@H]1C[C@H]3[C@H](N(C)C)C(O)=C(C(N)=O)C(=O)[C@@]3(O)C(O)=C1C2=O	broth microdilution	ATCC 43816 acrAB overexpressor	–	< 0.5 µg/mL
CC(=O)N[C@@H](CC(C)C)C(=O)N[C@@H](CCCCN)C(=O)N[C@@H](CC(C)C)C(=O)N[C@@H](CC(C)C)C(=O)N[C@@H](CCCCN)C(=O)N[C@@H](CCCCN)C(=O)N1CCC[C@H]1C(=O)N[C@@H](CC(C)C)C(=O)N[C@@H](CCCCN)C(=O)N[C@@H](CC(C)C)C(=O)N[C@@H](CC(C)C)C(=O)N[C@@H](CCCCN)C(N)=O	broth microdilution	ATCC 700603	18 h, 37 °C, compound alone	> 80 µM
CC(C)C[C@H](NC(=O)[C@@H](NC(=O)[C@H](CCCNC(=N)N)NC(=O)[C@H](CCC(N)=O)NC(=O)[C@H](Cc1ccccc1)NC(=O)[C@H](Cc1ccc(O)cc1)NC(=O)[C@H](CC(N)=O)NC(=O)[C@H](Cc1c[nH]c2ccccc12)NC(=O)[C@@H](NC(=O)[C@H](CCCNC(=N)N)NC(=O)[C@H](CCCCN)NC(=O)[C@@H](N)Cc1ccccc1)C(C)C)C(C)C)C(=O)N[C@H](C(=O)N[C@@H](CCCCN)C(=O)N[C@@H](CCCCN)C(=O)N[C@@H](Cc1ccc(O)cc1)C(=O)N[C@@H](C)C(N)=O)C(C)C	broth dilution	ATCC 700603	–	12.5 µM
CC[C@H](C)[C@H](NC(=O)CN)C(=O)NCC(=O)N[C@@H](C)C(=O)N[C@H](C(=O)N[C@@H](CC(C)C)C(=O)N[C@@H](CCCCN)C(=O)N[C@H](C(=O)N[C@@H](CC(C)C)C(=O)N[C@H](C(=O)N[C@H](C(=O)NCC(=O)N[C@@H](CC(C)C)C(=O)N1CCC[C@H]1C(=O)N[C@@H](C)C(=O)N[C@@H](CC(C)C)C(=O)N[C@H](C(=O)N[C@@H](CO)C(=O)N[C@@H](Cc1c[nH]c2ccccc12)C(=O)N[C@H](C(=O)N[C@@H](CCCCN)C(=O)N[C@@H](CCCNC(=N)N)C(=O)N[C@@H](CCCCN)C(=O)N[C@@H](CCCNC(=N)N)C(=O)N[C@@H](CCC(N)=O)C(=O)N[C@@H](CCC(N)=O)C(N)=O)[C@@H](C)CC)[C@@H](C)CC)[C@@H](C)O)[C@@H](C)O)C(C)C)C(C)C	–	NCCP 15864 carbapenem-resistant	–	16 µM
CC[C@H](C)[C@H](N)C(=O)N[C@@H](CO)C(=O)N[C@@H](Cc1ccccc1)C(=O)N[C@@H](CC(C)C)C(=O)NCC(=O)N[C@@H](CO)C(=O)N[C@@H](CCCCN)C(=O)N[C@H](C(=O)N[C@H](C(=O)N[C@H](C(=O)N[C@@H](CC(C)C)C(=O)N[C@@H](CC(C)C)C(=O)N[C@@H](CCCCN)C(=O)N[C@@H](CCCNC(=N)N)C(=O)N[C@@H](CCCNC(=N)N)C(=O)N[C@@H](CCCCN)C(=O)N[C@@H](CCCNC(=N)N)C(=O)N[C@@H](CCCCN)C(=O)N[C@@H](CCCNC(=N)N)C(=O)N[C@@H](CCCCN)C(N)=O)C(C)C)C(C)C)C(C)C	broth microdilution	ATCC 13883	highest value reported	64 µM
CCCc1nc(N(C)C)c2c(c1O)C(=O)C1=C(O)[C@]3(O)C(=O)C(C(N)=O)=C(O)[C@@H](N(C)C)[C@@H]3C[C@@H]1C2.Cl.Cl	–	tet(A)-carrying	–	> 32 µg/mL
CC[C@H](C)[C@H](NC(=O)CNC(=O)[C@H](CC(=O)O)NC(=O)[C@H](CCCNC(=N)N)NC(=O)[C@@H](NC(=O)[C@H](CC(N)=O)NC(=O)[C@H](CCCNC(=N)N)NC(=O)CNC(=O)[C@@H](NC(=O)[C@H](CCCCN)NC(=O)[C@H](CCC(=O)O)NC(=O)[C@@H](NC(=O)[C@H](CCCCN)NC(=O)[C@H](CCCCN)NC(=O)[C@H](Cc1ccccc1)NC(=O)[C@@H](NC(=O)[C@H](CCCCN)NC(=O)[C@H](Cc1c[nH]c2ccccc12)NC(=O)[C@@H](N)CCCNC(=N)N)[C@@H](C)CC)[C@@H](C)CC)C(C)C)C(C)C)C(=O)N[C@H](C(=O)N[C@@H](CCCCN)C(=O)N[C@@H](C)C(=O)NCC(=O)N1CCC[C@H]1C(=O)N[C@@H](C)C(=O)N[C@H](C(=O)N[C@@H](C)C(=O)N[C@H](C(=O)N[C@H](C(=O)NCC(=O)N[C@@H](CCC(N)=O)C(=O)N[C@@H](C)C(=O)N[C@@H](C)C(=O)N[C@H](C(=O)N[C@H](C(=O)N[C@H](C(=O)N[C@@H](CCCCN)C(N)=O)C(C)C)C(C)C)[C@@H](C)O)C(C)C)C(C)C)C(C)C)[C@@H](C)CC	broth microdilution, MH medium	NCCP 16054	16 h, 37 °C, growth inhibition over 99%	2 µM

Repeated from above:
Compound	test	system	conditions	MIC
CC(=O)N[C@@H](CCCCN)C(=O)N[C@@H](C)C(=O)N[C@@H](CC(C)C)C(=O)N[C@@H](CC(C)C)C(=O)N[C@@H](CCCCN)C(=O)N[C@@H](CC(C)C)C(=O)N[C@@H](CC(C)C)C(=O)N[C@@H](CCCCN)C(=O)N[C@@H](CCCCN)C(=O)N1CCC[C@H]1C(=O)N[C@@H](CC(C)C)C(=O)N[C@@H](CCCCN)C(=O)N[C@@H](CC(C)C)C(=O)N[C@@H](CC(C)C)C(=O)N[C@@H](CCCCN)C(N)=O	broth microdilution	ATCC 700603	18 h, 37 °C, compound alone	> 80 µM
C[C@@H](O)[C@H]1C(=O)N2C(C(=O)O)=C(S[C@@H]3CN[C@H](C(=O)N(C)C)C3)[C@H](C)[C@H]12	broth microdilution	ATCC 43816 acrAB overexpressor	–	< 0.5 µg/mL
C[C@@H](O)[C@H]1C(=O)N2C(C(=O)O)=C(S[C@@H]3CN[C@H](C(=O)N(C)C)C3)[C@H](C)[C@H]12	–	ATCC 700603 ESBL SHV-18	–	0.03 µg/mL
